Assay results gathered from unrelated publications.
A part holds a random share of what one study measured. Changes are numbered by the printed parent chain.

Series 1
Target: Interferon regulatory factor 7, full length, phosphomimetic (IRF7, Homo sapiens, UniProt Q92985, residues 1-503, S471D/S472D/S475D/S476D/S477D/S483D/S484D/S487D)
Sequence of UniProt Q92985 (whole entry, unmodified, looked up): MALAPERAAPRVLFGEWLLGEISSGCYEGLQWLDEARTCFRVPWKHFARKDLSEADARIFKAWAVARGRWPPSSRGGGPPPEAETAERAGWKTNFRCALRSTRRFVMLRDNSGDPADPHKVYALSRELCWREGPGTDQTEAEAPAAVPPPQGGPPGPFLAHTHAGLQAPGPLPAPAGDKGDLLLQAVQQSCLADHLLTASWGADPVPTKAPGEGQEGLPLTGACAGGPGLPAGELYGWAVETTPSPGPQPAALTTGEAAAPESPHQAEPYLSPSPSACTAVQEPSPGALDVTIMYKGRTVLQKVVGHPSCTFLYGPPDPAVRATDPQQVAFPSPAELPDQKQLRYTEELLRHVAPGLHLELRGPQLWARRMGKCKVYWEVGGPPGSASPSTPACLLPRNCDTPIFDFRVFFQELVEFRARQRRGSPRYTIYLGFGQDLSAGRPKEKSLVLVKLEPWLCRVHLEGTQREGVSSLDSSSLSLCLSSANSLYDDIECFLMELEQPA
Technique: protein-binding microarray
Form: double-stranded DNA, one strand shown
Medium: in vitro
Tested at: 2200 nM top
Notes: 60-bp whole probe
Added: salmon DNA 0.4 mg/ml
Baseline: random background probes
Reading: higher = stronger binding
All sequences stand within: GCCTAGCAC … GTCTTGATTCGCTTGACGCTGCTG
Oligonucleotide | fitted relative affinity
TTAGATATGGGGACTGGATTAGTGCTA | -0.156 z-score
TTCAGTTTTCCTATGTCATTGTGCTAG | 2.7 z-score
TCAATTTTCCAAATGCCACTGTGCTAG | 2.65 z-score
GGCGGACTGGGGTTTCGGGACGTGCTA | -0.313 z-score
TTAGGTATACTTATCCTTTAGTGCTAG | 0.188 z-score
TTAGGACTGCTCTTCCTTTAGTGCTAG | 0.695 z-score
TTAGGTTCCGGCTTCGGTTAGTGCTAG | 1.53 z-score
TTAGCTTTCAGTTCCGATTAGTGCTAG | 3.48 z-score

Series 2
Target: CCNA2, cyclin fold, Cln2 fusion (human)
Technique: yeast growth competition, sequencing
Medium: yeast
Notes: strong parent motif
Baseline: not given
Reading: higher = stronger binding
Starting sequence: E2F1 docking peptide (human); PPVKRRLDFETDH
Substitution | normalised enrichment score
PPVKRRNDFETDH [L7N] | -0.119
PRVKRRLDFETDH [P2R] | 6.67
PLVKRRLDFETDH [P2L] | 6.13
PPVKRGLDFETDH [R6G] | 4.17
PPVKRRLDFETMH [D12M] | 6.13
PPRKRRLDFETDH [V3R] | 4.94

Series 3
Target: RNA binding protein fox-1 homolog 2, RRM domain, GST-SBP tag (RBFOX2, Homo sapiens, UniProt O43251-10, residues 100-194)
Technique: RNA Bind-n-Seq
Form: RNA
Medium: in vitro
Tested at: 365 nM
Notes: natural RNA segment, single round, ends assumed
Baseline: no-protein control
Reading: higher = stronger binding
Target sequence (chain): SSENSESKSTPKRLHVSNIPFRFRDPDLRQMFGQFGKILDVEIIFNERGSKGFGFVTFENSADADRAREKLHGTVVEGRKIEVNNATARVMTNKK
Oligonucleotide | RBNS enrichment (R)
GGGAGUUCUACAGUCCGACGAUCAGUGCUAUCUCCAUCUACUGACUUGUGGUGUACACGUGCAUGUCUGGGUCUGUGGGUUUCUGUUGGGUGCUGAGUUGGGUGAUUUCAUUUUAGUGAAAUAUUUGUGGGCCUGGAAUUCUCGGGUGCCAA | 1.27
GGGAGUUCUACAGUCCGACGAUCUUCCUGUUUGCCGUGUAAAUGUUAGAAAGGAAUUAAAGUUAUUACUCGGAAUAAAGGAUGACUUUGGCGGAUGUCGCCCCUGCAAGGAGGUGGCUGAAAGUGGUGUCCAGUGGAAUUCUCGGGUGCCAA | 0.434
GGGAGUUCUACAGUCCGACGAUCACCUCAGGCAACGGGUGGAGCAGUUUGCCAGGGCCUUCCCCAUGCCUGGUUUUGAUGAGCAUUGAAGGCACCUGGGAAAUGAGGCCCACAGACUCAAAGUUACUCUCCUUUGGAAUUCUCGGGUGCCAA | 1.35
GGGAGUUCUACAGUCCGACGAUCCUAGGACCAGCUCCCACGUGCCAUUUACUGCUUUCUUCACCCUCCUCAUCUGGAGUUUGAUGGUUUACAGAUGUCUGACAGUUCCUCAGCUCUUGUGCCAAGGAGGAGUGUGGAAUUCUCGGGUGCCAA | 0.481
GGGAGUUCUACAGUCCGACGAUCAGCCCCGAAGCUGCCCCCUCCCCUUUUUGUAUAAUUUAAUAAAGAAACGGUCGCGCUUCUGUUUUUACCCGUCUCCUGCUUUCCCGCAGUCCGGUCAGUGCAUGAAAGGGUGGAAUUCUCGGGUGCCAA | 1.84
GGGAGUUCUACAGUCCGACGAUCGUUAAUGGAUGUAAUGCAGGGUUCCUACACUGUAUUGGCGCAUGUUGGUGGCCCUCUGUGCCCUAAGCAUAUGCACAUGGGGCACAUACACAGCUACAGAGUGAGAGUUGUGGAAUUCUCGGGUGCCAA | 5.82
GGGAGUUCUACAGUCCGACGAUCCCAUUCUGUGCAGGCUGCAGUGGCUCCCCUGCCCAGCCUGCUCUCCCUAACCCCUUGUCCGCAAGGGGUGAUGGCCGGCUGGUUGUGGGCACUGGCGGUCAAGUGUGGAGUGGAAUUCUCGGGUGCCAA | 0.236
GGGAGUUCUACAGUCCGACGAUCAUAUUCCAAACAACCCAGGGUUAGCCUUGGCCUCGAUCCUGGCCUUGGCCUCCCUAGGCUAUAUCUGGGACUGGGGGGAUGACAUGCUCCCACUCUGGCUCCUUGUUCUCUGGAAUUCUCGGGUGCCAA | 0.241
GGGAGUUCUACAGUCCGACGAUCUGAGAAUCCAUUGGUGUGUACUGUGUGACACAAUGCCAACAAGCCUCUGGUUUCUAAUACUGGCAGGACCAACACACAUACUUUAGUGGGAAUAUAAUCUGUUUAGACGAUGGAAUUCUCGGGUGCCAA | 0.243

Mixed results
Molecule | target | assay | test system | conditions | how to read | endpoint | result
PhoQ, residues 284 288 289 292 302 303 SMMNNA | PhoP, residues 12 14 15 18 19 SGWQI (Escherichia coli, UniProt P23836) | Sort-seq, measured: YFP reporter | E. coli | PhoQ-PhoP variant library, added: 10 µM Mg2+ | baseline: high Mg2+ state, higher = stronger signaling | fold induction | 2.49

A few entries again (series 3):
Oligonucleotide | RBNS enrichment (R)
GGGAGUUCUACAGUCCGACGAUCAGUGCUAUCUCCAUCUACUGACUUGUGGUGUACACGUGCAUGUCUGGGUCUGUGGGUUUCUGUUGGGUGCUGAGUUGGGUGAUUUCAUUUUAGUGAAAUAUUUGUGGGCCUGGAAUUCUCGGGUGCCAA | 1.27
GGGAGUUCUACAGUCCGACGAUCCUAGGACCAGCUCCCACGUGCCAUUUACUGCUUUCUUCACCCUCCUCAUCUGGAGUUUGAUGGUUUACAGAUGUCUGACAGUUCCUCAGCUCUUGUGCCAAGGAGGAGUGUGGAAUUCUCGGGUGCCAA | 0.481
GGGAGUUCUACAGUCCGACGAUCAGCCCCGAAGCUGCCCCCUCCCCUUUUUGUAUAAUUUAAUAAAGAAACGGUCGCGCUUCUGUUUUUACCCGUCUCCUGCUUUCCCGCAGUCCGGUCAGUGCAUGAAAGGGUGGAAUUCUCGGGUGCCAA | 1.84
